Assay results from different studies.
Values joined by “and” are separate records of one study, mostly repeats; a detail may differ. Numbers after ± are the reported error.
UCHL1: Ubiquitin carboxyl-terminal hydrolase isozyme L1 (UCHL1, Homo sapiens, UniProt P09936)
ADRA2C: Alpha-2C adrenergic receptor (ADRA2C, Homo sapiens, UniProt P18825)
BEST1: BEST1 (Homo sapiens, UniProt O76090)
Faah: Fatty-acid amide hydrolase 1 (Faah, Rattus norvegicus, UniProt P97612)
CEK1: Extracellular signal-regulated kinase 1 (CEK1, Candida albicans, UniProt Q5A1D3)

CC(Cl)C(=O)N1CCN(CC(F)(F)C(F)F)CC1 (centres unmarked) — labelling (UCHL1; covalent, intact protein LC-MS; 12.5 µM): 12.8%
Cc1cc(Oc2ncccc2CN2CCN(c3ncccc3C(F)(F)F)CC2)ccc1-c1c(C)c(=O)[nH]c(=O)n1C — selectivity ratio (ADRA2C; binding, radioligand binding; together with: [3H]rauwolscine; relative to: Ki alpha2A over Ki alpha2C): 6
O=C(O)c1ccc([N+](=O)[O-])cc1 — current density (BEST1; whole-cell patch clamp; HEK293 transiently expressing channel; concentration not given, membrane potential -20 mV): -19.2 pA/pF and -19.6 pA/pF and -8.05 pA/pF and -15.1 pA/pF and -8.68 pA/pF and -14.5 pA/pF and -24.7 pA/pF
Nc1ncnc2c1ncn2[C@@H]1O[C@H](COP(=O)(O)CP(=O)(O)OP(=O)(O)O)[C@@H](O)[C@H]1O — calcium influx (P2X purinoceptor 1 (P2RX1, Homo sapiens, UniProt P51575, K140A); calcium influx; 10 µM; relative to: ionomycin response): 100%
CN(C(=O)n1cnc(-c2ccc[n+]([O-])c2)c1)C1CCCCC1 — maximum inhibition (Faah; enzyme activity; rat, brain; 0.1 mg/kg, 8 h): 92%
Cn1ncc(S(=O)(=O)NC2(c3ccc(Cl)cc3F)CCCCC2)c1C(=O)O — remaining activity (malate dehydrogenase; enzyme activity, inhibitor; 200 µM, pH 7.0, 1% DMSO, aggregation counter-screen): 93%
COc1ccccc1CN1CC(C(=O)NCCN(C)CCc2ccccc2)CCC1=O (centres unmarked) — inhibition (Trypanosoma cruzi; reporter translation, Renilla luciferase mRNA translation; cell-free extract; 40 µM; relative to: DMSO): -13.4%
CC(C)(C)OC(=O)[C@@H]1C[C@H]1C(=O)CCl — labelling (UCHL1; covalent, intact protein LC-MS; 12.5 µM): 27.5%
O=c1nc(SCc2cc(F)cc(C(F)(F)F)c2)nc(SCc2ccc3sccc3c2)[nH]1 — decatenated DNA (DNA topoisomerase 2-beta (TOP2B, Homo sapiens, UniProt Q02880); decatenation; 125 µM, replicate 1): 0%
CC(Cc1c(Cl)cccc1Cl)NS(=O)(=O)c1cnn(C)c1C(=O)O (centres unmarked) — remaining activity (malate dehydrogenase; enzyme activity, inhibitor; 200 µM, pH 7.0, 1% DMSO, aggregation counter-screen): 93%
C=CC(=O)N1CCC(COCC(=O)N2CCN(c3nc(-c4cnc(N)nc4C(F)F)nc(N4CCOC[C@@H]4C)n3)CC2)CC1 — remaining binding (Serine/threonine-protein kinase ULK2 (ULK2, Homo sapiens, UniProt Q8IYT8); KINOMEscan; 1 µM): 100%
CC[C@@H]1[C@H](F)C(=O)N[C@@H]1COc1nccc2cc(C(N)=O)c(OC)cc12 — inhibition (Serine/threonine-protein kinase tousled-like 2 (TLK2, Homo sapiens, UniProt Q86UE8); ATP-site probe binding, ActivX profiling; THP-1 cell lysate; 0.01 mM, Lys1 site): 16.6%
N#CC(=Cc1ccc(F)c([N+](=O)[O-])c1)C(=O)Nc1ccc(F)cc1 — labelling (UCHL1; covalent, intact protein LC-MS; 12.5 µM): 43.8%
Cc1oc(C)c(S(=O)(=O)NCC(F)(F)c2ccc(Br)cc2)c1C(=O)O — remaining activity (malate dehydrogenase; enzyme activity, inhibitor; 200 µM, pH 7.0, 1% DMSO, aggregation counter-screen): 105%
COC(=O)c1cn(C)c2ccc(-c3cccnc3)cc12 — activation (Vitamin D3 receptor (VDR, Homo sapiens, UniProt P11473); reporter gene, Gal4 hybrid reporter; 10 µM; relative to: vehicle): 1.43 fold
O=C(O)C1=CCNCC1 — current density (BEST1; whole-cell patch clamp; HEK293 transiently expressing channel; concentration not given, membrane potential 20 mV): 7.73 pA/pF and 18.6 pA/pF and 7.16 pA/pF and 5.86 pA/pF and 26.9 pA/pF and 15.4 pA/pF
O=C(N1CCN(Cc2ccc(OCc3ccccc3)cc2)CC1)n1cccn1 — time to maximal inhibition (Faah; inhibitor; 5 nM, pH 9, 25 °C): ~3 h
N#CC(=Cc1ccc(Cl)cc1Cl)C(=O)Nc1nccs1 — labelling (UCHL1; covalent, intact protein LC-MS; 12.5 µM): 31.4%
c1coc(-c2n[nH]cc2-c2ccnc3ccccc23)c1 — log2 fold change (CEK1; kinase binding, MIB/MS competition; Candida albicans lysate; 1 µM; relative to: DMSO, negative = stronger binding): -0.31
[O-][S+]1CCCCS1 (centres unmarked) — SOD1 dimer fraction (Superoxide dismutase [Cu-Zn] (SOD1, Homo sapiens, UniProt P00441, G94A); LC-MS; brain homogenate; 50 µM, 1 h, 37 °C): 14.7%
CC1(C)OB(O)c2cc(NC(=O)c3ccc(F)cc3C(F)(F)F)ccc21 — inhibition (Trypanosoma cruzi; reporter translation, Renilla luciferase mRNA translation; cell-free extract; 40 µM; relative to: DMSO): -2.4%
Oc1ccc([C@@H]2c3c(O)cc(O)cc3[C@@H]3c4c(cc(O)c5c4[C@@H]2[C@H](c2ccc(O)cc2)[C@H]5c2cc(O)cc4c2[C@@H](c2cc(O)cc(O)c2)[C@H](c2ccc(O)cc2)O4)O[C@H]3c2ccc(O)cc2)cc1 — cooperativity factor alpha (Alpha-amylase 1A (AMY1A, Homo sapiens, UniProt P0DUB6); enzyme activity, inhibitor; salivary): 5.7
CC(=O)N[C@H](C(=O)N1C[C@H](O)C[C@H]1C(=O)NCc1ccc(-c2scnc2C)cc1)C(C)(C)SCCCCCCNC(=O)C[C@@H]1N=C(c2ccc(Cl)cc2)c2c(sc(C)c2C)-n2c(C)nnc21 — binding stoichiometry (Bromodomain-containing protein 4, BD1 (BRD4, Homo sapiens, UniProt O60885); ITC; concentration not given, 25 °C, compound in cell, protein in syringe): 0.73 ± 0.03
CCc1oc2ccccc2c1C(=O)c1cc(Br)c(O)c(Br)c1 — normalized urate uptake (Solute carrier family 22 member 12 (SLC22A12, Homo sapiens, UniProt Q96S37); inhibitor; HEK-293T; 100 µM, 10 min, 37 °C, together with: [14C]urate 10 µM): 1.13e-06 and -0.000733 and 0.000732
Oc1ccccc1-c1n[nH]cc1-c1ccnc2ccccc12 — log2 fold change (CEK1; kinase binding, MIB/MS competition; Candida albicans lysate; 10 µM; relative to: DMSO, negative = stronger binding): 0.42
O=C(CCl)N1CCN(C2CCCN(C3CCOCC3)C2=O)CC1 (centres unmarked) — labelling (UCHL1; covalent, intact protein LC-MS; 12.5 µM): 5.73%
Cc1noc(CC2(NS(=O)(=O)c3cccc(Cl)c3O)CC2)n1 — remaining activity (malate dehydrogenase; enzyme activity, inhibitor; 200 µM, pH 7.0, 1% DMSO, aggregation counter-screen): 108%
Cc1cc(Oc2ncccc2CN2CCN(c3cccc4ccccc34)CC2)ccc1-c1c(C)c(=O)[nH]c(=O)n1C — selectivity ratio (ADRA2C; binding, radioligand binding; together with: [3H]rauwolscine; relative to: Ki alpha2B over Ki alpha2C): 9
CC1CCCCC1NC(=O)C(C#N)=Cc1cccc(O)c1 (centres unmarked) — labelling (UCHL1; covalent, intact protein LC-MS; 12.5 µM): 19.4%
COc1cc(O)c2c(c1)oc(=O)c1c3cc(O)c(O)cc3oc21 — β-Turn content (Alpha-glucosidase MAL12 (MAL12, Saccharomyces cerevisiae S288c, UniProt P53341); circular dichroism; molar ratio 1:1): 20.1%
CSCC[C@H](NC(C)=O)C(=O)N[C@@H](CC(=O)O)C(=O)N1CCC[C@H]1C(=O)N1CCC[C@H]1C(=O)N[C@@H](CC(C)C)C(=O)N[C@@H](Cc1c[nH]cn1)C(=O)N[C@@H](CO)C(=O)N[C@H](C(=O)N[C@@H](C)C(N)=O)[C@@H](C)OP(=O)(O)O — binding entropy (Serine/threonine-protein kinase PLK1 (PLK1, Homo sapiens, UniProt P53350); polo-box domain binding, isothermal titration calorimetry; concentration not given, 25 °C): -25.5 cal/(mol·K)
COC(=O)C(C#N)=Cc1c(Oc2ccc(Cl)c(C)c2)nc2ccccn2c1=O — labelling (UCHL1; covalent, intact protein LC-MS; 12.5 µM): 10.7%
COc1ccc(C)cc1CN1CCC(c2cc3ncccc3cn2)CC1 — ΔS (Catenin beta-1, residues 141-305 (CTNNB1, Homo sapiens, UniProt P35222); ITC; 25 °C): 21.6 cal/mol/K
O=C(c1ccc(F)cc1)N1CCC2(CC1)N(C1CCCC1)C(=O)C[S+]2[O-] (centres unmarked) — labelling (UCHL1; covalent, intact protein LC-MS; 12.5 µM): 12.2%
CN(C)CCCN1c2ccccc2Sc2ccc(Cl)cc21 — IC30 (Voltage-dependent P/Q-type calcium channel subunit alpha-1A (Homo sapiens, UniProt O00555); ion current, antagonist, automated patch clamp): 2.37 µM
